Measurements gathered from unrelated publications.
Lines come from different studies, so protocols differ. ± marks the error that the study gave.
Tumor necrosis factor receptor superfamily member 9/Nectin-4: Tumor necrosis factor receptor superfamily member 9/Nectin-4 (Homo sapiens, UniProt Q07011+Q96NY8)
Sequence of UniProt Q96NY8 (whole entry, looked up): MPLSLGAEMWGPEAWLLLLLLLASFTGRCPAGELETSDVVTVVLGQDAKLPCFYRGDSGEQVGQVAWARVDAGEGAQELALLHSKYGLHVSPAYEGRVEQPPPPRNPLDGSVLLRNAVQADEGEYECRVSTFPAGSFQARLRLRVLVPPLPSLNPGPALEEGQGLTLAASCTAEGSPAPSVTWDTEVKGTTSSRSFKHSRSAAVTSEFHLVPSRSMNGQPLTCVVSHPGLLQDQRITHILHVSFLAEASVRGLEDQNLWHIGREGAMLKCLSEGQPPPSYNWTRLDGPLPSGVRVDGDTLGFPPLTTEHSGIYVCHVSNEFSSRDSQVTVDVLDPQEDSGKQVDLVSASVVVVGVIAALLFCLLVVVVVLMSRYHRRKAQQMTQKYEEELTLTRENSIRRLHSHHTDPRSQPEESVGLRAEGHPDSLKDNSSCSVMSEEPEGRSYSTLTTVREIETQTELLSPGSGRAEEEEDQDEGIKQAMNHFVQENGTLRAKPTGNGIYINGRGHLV
Sequence of UniProt Q07011 (whole entry, looked up): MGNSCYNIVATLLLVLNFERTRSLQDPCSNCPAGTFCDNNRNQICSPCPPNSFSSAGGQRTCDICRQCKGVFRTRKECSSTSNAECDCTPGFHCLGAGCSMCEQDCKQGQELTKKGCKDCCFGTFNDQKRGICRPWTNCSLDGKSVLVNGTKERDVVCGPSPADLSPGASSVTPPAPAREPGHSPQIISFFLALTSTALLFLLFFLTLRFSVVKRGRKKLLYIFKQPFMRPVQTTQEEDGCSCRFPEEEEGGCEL
Toll-like receptor 1/2: Toll-like receptor 1/2 (Homo sapiens, UniProt O60603+Q15399)
Sequence of UniProt Q15399 (whole entry, looked up): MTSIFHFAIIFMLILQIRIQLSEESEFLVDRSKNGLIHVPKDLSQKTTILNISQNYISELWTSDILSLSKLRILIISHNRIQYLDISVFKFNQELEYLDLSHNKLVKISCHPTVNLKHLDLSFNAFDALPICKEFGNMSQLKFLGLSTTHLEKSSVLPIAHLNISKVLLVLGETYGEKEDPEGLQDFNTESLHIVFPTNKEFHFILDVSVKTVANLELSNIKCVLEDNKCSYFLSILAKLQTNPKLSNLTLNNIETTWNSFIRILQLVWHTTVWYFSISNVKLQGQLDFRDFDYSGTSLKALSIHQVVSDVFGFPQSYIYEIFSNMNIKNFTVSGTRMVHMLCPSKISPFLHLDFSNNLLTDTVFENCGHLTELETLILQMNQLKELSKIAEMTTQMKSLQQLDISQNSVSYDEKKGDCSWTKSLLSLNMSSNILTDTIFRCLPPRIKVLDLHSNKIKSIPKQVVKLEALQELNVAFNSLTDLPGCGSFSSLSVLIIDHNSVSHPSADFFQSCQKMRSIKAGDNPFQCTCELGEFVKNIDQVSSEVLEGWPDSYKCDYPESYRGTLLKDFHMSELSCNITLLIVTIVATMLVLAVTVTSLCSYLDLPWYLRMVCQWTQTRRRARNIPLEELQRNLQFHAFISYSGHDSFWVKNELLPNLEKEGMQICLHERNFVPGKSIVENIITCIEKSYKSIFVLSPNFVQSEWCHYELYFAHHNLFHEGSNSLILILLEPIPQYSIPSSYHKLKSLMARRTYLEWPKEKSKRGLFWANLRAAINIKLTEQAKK
Sequence of UniProt O60603 (whole entry, looked up): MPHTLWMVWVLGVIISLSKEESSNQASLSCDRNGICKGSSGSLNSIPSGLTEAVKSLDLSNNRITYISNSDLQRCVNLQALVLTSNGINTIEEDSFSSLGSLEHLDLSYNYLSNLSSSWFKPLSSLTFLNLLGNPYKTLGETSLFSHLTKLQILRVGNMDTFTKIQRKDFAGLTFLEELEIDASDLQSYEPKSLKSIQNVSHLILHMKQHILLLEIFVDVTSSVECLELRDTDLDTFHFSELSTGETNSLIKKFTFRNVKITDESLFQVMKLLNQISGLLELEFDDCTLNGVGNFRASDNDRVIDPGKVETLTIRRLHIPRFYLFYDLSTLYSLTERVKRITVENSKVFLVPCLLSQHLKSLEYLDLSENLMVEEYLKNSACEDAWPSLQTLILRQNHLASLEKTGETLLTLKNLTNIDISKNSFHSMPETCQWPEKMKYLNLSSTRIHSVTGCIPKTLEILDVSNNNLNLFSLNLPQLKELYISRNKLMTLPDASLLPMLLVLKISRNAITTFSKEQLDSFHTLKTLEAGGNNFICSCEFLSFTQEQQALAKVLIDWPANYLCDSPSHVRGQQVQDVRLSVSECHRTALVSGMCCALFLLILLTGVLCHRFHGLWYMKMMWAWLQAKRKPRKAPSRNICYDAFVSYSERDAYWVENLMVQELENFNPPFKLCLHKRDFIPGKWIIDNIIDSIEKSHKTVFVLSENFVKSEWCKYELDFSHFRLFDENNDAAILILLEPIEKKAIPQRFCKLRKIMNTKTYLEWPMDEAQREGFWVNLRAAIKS
uncharacterized protein: uncharacterized protein (Vulpes vulpes, UniProt A0A3Q7SVK8)
Sequence of UniProt P41595 (whole entry, looked up): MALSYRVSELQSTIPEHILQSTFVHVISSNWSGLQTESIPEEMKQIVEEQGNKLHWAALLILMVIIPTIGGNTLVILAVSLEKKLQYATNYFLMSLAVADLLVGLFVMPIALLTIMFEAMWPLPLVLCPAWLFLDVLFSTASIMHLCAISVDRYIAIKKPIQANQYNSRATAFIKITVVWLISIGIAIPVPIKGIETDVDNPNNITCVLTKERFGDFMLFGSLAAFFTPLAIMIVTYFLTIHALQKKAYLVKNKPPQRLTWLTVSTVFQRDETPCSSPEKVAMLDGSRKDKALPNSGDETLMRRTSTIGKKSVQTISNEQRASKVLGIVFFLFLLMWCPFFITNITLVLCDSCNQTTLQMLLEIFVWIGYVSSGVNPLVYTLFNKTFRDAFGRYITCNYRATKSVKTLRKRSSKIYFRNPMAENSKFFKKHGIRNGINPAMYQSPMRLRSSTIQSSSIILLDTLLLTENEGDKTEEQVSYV
Sequence of UniProt Q13258 (whole entry, unmodified, looked up): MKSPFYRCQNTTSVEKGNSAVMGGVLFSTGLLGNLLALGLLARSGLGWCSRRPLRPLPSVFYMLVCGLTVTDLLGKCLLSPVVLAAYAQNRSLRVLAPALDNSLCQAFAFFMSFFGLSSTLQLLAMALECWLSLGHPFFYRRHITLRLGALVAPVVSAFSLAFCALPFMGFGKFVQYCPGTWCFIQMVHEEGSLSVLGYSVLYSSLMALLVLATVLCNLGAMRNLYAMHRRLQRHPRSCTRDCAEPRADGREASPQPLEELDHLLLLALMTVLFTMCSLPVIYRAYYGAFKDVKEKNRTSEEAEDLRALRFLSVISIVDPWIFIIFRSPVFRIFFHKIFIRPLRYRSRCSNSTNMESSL
Sequence of UniProt Q8NHB7 (whole entry, looked up): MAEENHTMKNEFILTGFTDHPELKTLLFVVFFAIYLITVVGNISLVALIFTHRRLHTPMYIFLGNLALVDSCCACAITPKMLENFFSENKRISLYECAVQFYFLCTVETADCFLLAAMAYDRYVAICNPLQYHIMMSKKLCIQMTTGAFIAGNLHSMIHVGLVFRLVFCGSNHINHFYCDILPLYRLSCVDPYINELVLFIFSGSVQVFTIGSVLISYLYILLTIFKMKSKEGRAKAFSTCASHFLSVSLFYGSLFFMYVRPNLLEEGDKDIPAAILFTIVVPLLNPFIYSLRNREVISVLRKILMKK
Sequence of UniProt P45974 (whole entry, looked up): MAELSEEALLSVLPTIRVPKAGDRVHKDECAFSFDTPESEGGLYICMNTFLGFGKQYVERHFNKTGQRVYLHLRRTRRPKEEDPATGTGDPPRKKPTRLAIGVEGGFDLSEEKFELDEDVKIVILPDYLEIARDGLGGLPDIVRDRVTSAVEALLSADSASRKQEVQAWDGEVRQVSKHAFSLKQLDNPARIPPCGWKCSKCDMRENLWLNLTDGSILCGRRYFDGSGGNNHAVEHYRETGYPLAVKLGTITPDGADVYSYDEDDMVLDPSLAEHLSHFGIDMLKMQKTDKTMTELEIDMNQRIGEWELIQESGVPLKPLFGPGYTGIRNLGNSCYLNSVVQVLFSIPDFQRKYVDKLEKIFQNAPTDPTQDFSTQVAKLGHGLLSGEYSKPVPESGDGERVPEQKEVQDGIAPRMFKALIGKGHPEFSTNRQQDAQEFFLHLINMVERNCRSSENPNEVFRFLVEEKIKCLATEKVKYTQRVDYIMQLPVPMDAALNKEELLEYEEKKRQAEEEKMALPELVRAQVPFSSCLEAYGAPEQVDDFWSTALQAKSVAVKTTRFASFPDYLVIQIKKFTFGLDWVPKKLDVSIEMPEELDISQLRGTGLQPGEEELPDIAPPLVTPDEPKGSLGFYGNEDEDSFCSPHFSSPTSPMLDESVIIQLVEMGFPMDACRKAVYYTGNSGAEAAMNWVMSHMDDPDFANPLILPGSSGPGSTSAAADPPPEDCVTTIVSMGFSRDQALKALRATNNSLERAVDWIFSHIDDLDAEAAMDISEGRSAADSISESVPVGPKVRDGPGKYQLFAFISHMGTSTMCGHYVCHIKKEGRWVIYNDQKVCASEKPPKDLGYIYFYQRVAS
Sequence of UniProt P14618 (whole entry, looked up): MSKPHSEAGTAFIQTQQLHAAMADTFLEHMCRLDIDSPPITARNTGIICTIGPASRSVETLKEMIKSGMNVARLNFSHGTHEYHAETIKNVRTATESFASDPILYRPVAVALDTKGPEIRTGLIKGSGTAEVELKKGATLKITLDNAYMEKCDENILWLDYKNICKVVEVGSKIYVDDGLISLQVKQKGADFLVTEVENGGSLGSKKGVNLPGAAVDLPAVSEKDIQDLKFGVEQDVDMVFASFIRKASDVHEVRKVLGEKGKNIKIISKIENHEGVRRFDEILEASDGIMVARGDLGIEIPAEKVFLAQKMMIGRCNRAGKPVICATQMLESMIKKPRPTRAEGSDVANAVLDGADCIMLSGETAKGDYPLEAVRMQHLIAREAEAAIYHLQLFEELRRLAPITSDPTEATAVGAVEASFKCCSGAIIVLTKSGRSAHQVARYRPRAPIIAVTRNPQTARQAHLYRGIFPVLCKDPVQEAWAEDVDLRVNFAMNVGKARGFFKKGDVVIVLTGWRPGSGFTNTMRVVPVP

Structure (SMILES) = CCCC[C@@H]1NC(=O)[C@H](Cc2ccc(O)cc2)NC(=O)[C@@H]2CCCN2C(=O)[C@H](CC(=O)O)NC(=O)[C@H](C)NC(=O)[C@H](Cc2ccccc2)NC(=O)[C@@H]2CSCCC(=O)N3CN(CN(C3)C(=O)CCSC[C@@H](C(=O)N[C@@H](C)C(N)=O)NC1=O)C(=O)CCSC[C@H](NC(C)=O)C(=O)N[C@@H](CC(C)(C)C)C(=O)N1CCC[C@H]1C(=O)N[C@@H](CCCCNC(=O)CCc1cn(CCOCCOCCOCCOCCOCCC(=O)N[C@H]3CSCCC(=O)N4CN5CN(C4)C(=O)CCSC[C@H](NC(=O)[C@@H](CC(=O)O)NC(=O)[C@H](Cc4cccc6ccccc46)NC(=O)[C@@H]4CCCN4C3=O)C(=O)N[C@@H](CCSC)C(=O)N[C@@H](CCCCNC(=N)N)C(=O)N[C@@H](CC(=O)O)C(=O)N[C@@H](Cc3c[nH]c4ccccc34)C(=O)N[C@@H](CO)C(=O)N[C@@H]([C@@H](C)O)C(=O)N3CCC[C@H]3C(=O)N3C[C@H](O)C[C@H]3C(=O)N[C@@H](Cc3c[nH]c4ccccc34)C(=O)N[C@H](C(N)=O)CSCCC5=O)nn1)C(=O)N[C@H](C)C(=O)N1CCC[C@H]1C(=O)N[C@@H](Cc1ccc(O)cc1)C(=O)N2; target or system = Tumor necrosis factor receptor superfamily member 9/Nectin-4; test = reporter gene, agonist; system = HT-1376 coculture with reporter cells; measurement = EC50; result = 0.00317 µM
Structure (SMILES) = O=C(O)CCCc1cc2cc(Cl)ccc2n1S(=O)(=O)c1ccc2ncsc2c1; target or system = PPARD (Homo sapiens, UniProt Q03181); test = reporter gene, agonist, luciferase reporter; conditions = serum-free; measurement = EC50; result = 1 µM
Structure (SMILES) = O=C(COP(=O)(O)O)[C@@H](O)[C@H](O)[C@H](O)COP(=O)(O)O; target or system = Pyruvate kinase PKM (PKM, Homo sapiens, UniProt P14618); test = pyruvate kinase activity, activator; system = MGC-803 cell lysate; conditions = with: AIM; measurement = EC50; result = 0.699 ± 0.313 µM
Structure (SMILES) = CCCC[C@@H]1NC(=O)[C@H](Cc2ccc(O)cc2)NC(=O)[C@@H]2CCCN2C(=O)[C@H](CC(=O)O)NC(=O)[C@H](C)NC(=O)[C@H](Cc2ccccc2)NC(=O)[C@@H]2CSCCC(=O)N3CN(CN(C3)C(=O)CCSC[C@@H](C(=O)N[C@@H](C)C(N)=O)NC1=O)C(=O)CCSC[C@H](NC(C)=O)C(=O)N[C@@H](CC(C)(C)C)C(=O)N1CCC[C@H]1C(=O)N[C@@H](CCCCNC(=O)CCc1cn(CC(=O)N[C@H]3CSCCC(=O)N4CN5CN(C4)C(=O)CCSC[C@H](NC(=O)[C@@H](CC(=O)O)NC(=O)[C@H](Cc4cccc6ccccc46)NC(=O)[C@@H]4CCCN4C3=O)C(=O)N[C@@H](CCSC)C(=O)N[C@@H](CCCCNC(=N)N)C(=O)N[C@@H](CC(=O)O)C(=O)N[C@@H](Cc3c[nH]c4ccccc34)C(=O)N[C@@H](CO)C(=O)N[C@@H]([C@@H](C)O)C(=O)N3CCC[C@H]3C(=O)N3C[C@H](O)C[C@H]3C(=O)N[C@@H](Cc3c[nH]c4ccccc34)C(=O)N[C@H](C(N)=O)CSCCC5=O)nn1)C(=O)N[C@H](C)C(=O)N1CCC[C@H]1C(=O)N[C@@H](Cc1ccc(O)cc1)C(=O)N2; target or system = Tumor necrosis factor receptor superfamily member 9/Nectin-4; test = reporter gene, agonist; system = HT-1376 coculture with reporter cells; measurement = EC50; result = 0.00083 µM
Structure (SMILES) = CCCCC[C@H](O)/C=C/[C@H]1C(=O)C[C@H](O)[C@@H]1C/C=C\CCCC(=O)O; target or system = PTGDR (Homo sapiens, UniProt Q13258, R332A); test = agonist; measurement = EC50; result = 0.126 µM
Structure (SMILES) = CNc1ccc([N+](=O)[O-])cc1-n1cnc(-c2cccc([N+](=O)[O-])c2)c1; target or system = Toll-like receptor 1/2; test = reporter gene, agonist; system = HEK-Blue hTLR2; conditions = 24 h; measurement = EC50; result = > 100 µM
Structure (SMILES) = CCCC[C@@H]1NC(=O)[C@H](Cc2ccc(O)cc2)NC(=O)[C@@H]2CCCN2C(=O)[C@H](CC(=O)O)NC(=O)[C@H](C)NC(=O)[C@H](Cc2ccccc2)NC(=O)[C@@H]2CSCCC(=O)N3CN(CN(C3)C(=O)CCSC[C@@H](C(=O)N[C@@H](C)C(N)=O)NC1=O)C(=O)CCSC[C@H](NC(C)=O)C(=O)N[C@@H](CC(C)(C)C)C(=O)N1CCC[C@H]1C(=O)N[C@@H](CCC(=O)O)C(=O)N[C@H](CCCCNC(=O)CCOCCOCCOCCOCCOCCOCCOCCOCCOCCOCCOCCOCCn1cc(CCC(=O)NCCC(=O)N(C)CC(=O)N(C)CC(=O)N(C)CC(=O)N(C)CC(=O)N(C)CC(=O)N(C)CC(=O)N(C)CC(=O)N(C)CC(=O)N(C)CC(=O)N(C)CC(=O)N[C@H]3CSCCC(=O)N4CN5CN(C4)C(=O)CCSC[C@H](NC(=O)[C@@H](CC(=O)O)NC(=O)[C@H](Cc4cccc6ccccc46)NC(=O)[C@@H]4CCCN4C3=O)C(=O)N[C@@H](CCSC)C(=O)N[C@@H](CCCCNC(=N)N)C(=O)N[C@@H](CC(=O)O)C(=O)N[C@@H](Cc3c[nH]c4ccccc34)C(=O)N[C@@H](CO)C(=O)N[C@@H]([C@@H](C)O)C(=O)N3CCC[C@H]3C(=O)N3C[C@H](O)C[C@H]3C(=O)N[C@@H](Cc3c[nH]c4ccccc34)C(=O)N[C@H](C(N)=O)CSCCC5=O)nn1)C(=O)N1CCC[C@H]1C(=O)N[C@@H](Cc1ccc(O)cc1)C(=O)N2; target or system = Tumor necrosis factor receptor superfamily member 9/Nectin-4; test = reporter gene, agonist; system = HT-1376 reporter coculture; measurement = EC50; result = 0.0021 µM
Structure (SMILES) = CNc1ccc(C(=O)O)cc1-n1cnc(-c2ccc(C(F)(F)F)cc2)c1; target or system = Toll-like receptor 1/2; test = reporter gene, agonist; system = HEK-Blue hTLR2; conditions = 24 h; measurement = EC50; result = > 100 µM
Structure (SMILES) = CCc1nccnc1CC; target or system = uncharacterized protein; test = cAMP, agonist; system = HEK293 transfected with uncharacterized protein; measurement = EC50; result = 1300 ± 744 µM
Structure (SMILES) = Cn1cc2c(C(=O)O)ccc(NS(=O)(=O)c3ccc(OCC4CCC4)c(Cl)c3)c2n1; target or system = HTR2B (Homo sapiens, UniProt P41595); test = agonist; measurement = EC50; result = > 10 µM
Structure (SMILES) = CCc1nccnc1OC; target or system = uncharacterized protein; test = cAMP, agonist; system = HEK293 transfected with uncharacterized protein; measurement = EC50; result = 323 ± 93.3 µM
Structure (SMILES) = CCCC[C@@H]1NC(=O)[C@H](Cc2ccc(O)cc2)NC(=O)[C@@H](C)N(C)C(=O)[C@H](CC(=O)O)NC(=O)[C@H](C)NC(=O)[C@H](Cc2ccccc2)NC(=O)[C@@H]2CSCCC(=O)N3CN(CN(C3)C(=O)CCSC[C@H](NC(C)=O)C(=O)N[C@@H](CC(C)(C)C)C(=O)N3CCC[C@H]3C(=O)N[C@@H](CCC(=O)O)C(=O)N[C@H](CCCCNC(=O)CCc3cn(CCOCCOCCOCCN(CCOCCOCCOCCC(=O)N[C@H]4CSCCC(=O)N5CN6CN(C5)C(=O)CCSC[C@H](NC(=O)[C@@H](CC(=O)O)NC(=O)[C@H](Cc5cccc7ccccc57)NC(=O)[C@@H]5CCCN5C4=O)C(=O)N[C@@H](CCSC)C(=O)N[C@@H](CCCCNC(=N)N)C(=O)N[C@@H](CC(=O)O)C(=O)N[C@@H](Cc4c[nH]c5ccccc45)C(=O)N[C@@H](CO)C(=O)N[C@@H]([C@@H](C)O)C(=O)N4CCC[C@H]4C(=O)N4C[C@H](O)C[C@H]4C(=O)N[C@@H](Cc4c[nH]c5ccccc45)C(=O)N[C@H](C(N)=O)CSCCC6=O)CCOCCOCCOCCn4cc(CCC(=O)NCCCC[C@H]5NC(=O)[C@H](CCC(=O)O)NC(=O)[C@@H]6CCCN6C(=O)[C@H](CC(C)(C)C)NC(=O)[C@@H](NC(C)=O)CSCCC(=O)N6CN7CN(C6)C(=O)CCSC[C@H](NC(=O)[C@H](Cc6ccc(O)cc6)NC(=O)[C@@H]6CCCN6C5=O)C(=O)N[C@@H](Cc5ccccc5)C(=O)N[C@@H](C)C(=O)N[C@@H](CC(=O)O)C(=O)N(C)[C@H](C)C(=O)N[C@@H](Cc5ccc(O)cc5)C(=O)N[C@@H](CCCC)C(=O)N[C@H](C(N)=O)CSCCC7=O)nn4)nn3)C(=O)N3CCC[C@H]3C(=O)N[C@@H](Cc3ccc(O)cc3)C(=O)N2)C(=O)CCSC[C@@H](C(N)=O)NC1=O; target or system = Tumor necrosis factor receptor superfamily member 9/Nectin-4; test = reporter gene, agonist; system = HT-1376 reporter coculture; measurement = EC50; result = 0.00035 µM
Structure (SMILES) = CC(=O)Nc1c(I)c(NC(C)=O)c(I)c(C(=O)O)c1I; target or system = human iPSC-derived cardiomyocytes; test = MyBP-C/MYH ratio, plate-normalised SD score; conditions = concentration not given, primary screen; how to read = direction not given; measurement = activity score; result = 3
Structure (SMILES) = COc1cnccn1; target or system = OR5K1 (Homo sapiens, UniProt Q8NHB7); test = cAMP luminescence, agonist; system = HEK293; measurement = EC50; result = ≥ 1500 µM
Structure (SMILES) = O=C(O)CCn1sc2ccccc2c1=O; target or system = Ubiquitin carboxyl-terminal hydrolase 5, ZnF-UBD domain (USP5, Homo sapiens, UniProt P45974); measurement = Kd; result = > 1000 µM
Structure (SMILES) = Nc1ccn([C@@H]2O[C@H](CO)[C@@H](O)[C@H]2O)c(=O)n1; target or system = human iPSC-derived cardiomyocytes; test = MyBP-C/MYH ratio, plate-normalised SD score; conditions = concentration not given, primary screen; how to read = direction not given; measurement = activity score; result = 3.4
Structure (SMILES) = Nc1nc2c(ncn2[C@@H]2O[C@@H]3COP(=O)(O)O[C@H]3[C@H]2O)c(=O)[nH]1; target or system = Cone cGMP-gated channel (Morone saxatilis, UniProt Q3I0N1+Q3I0N2); test = channel current, agonist, suction electrode; system = Morone saxatilis cone outer segments; conditions = with: 20 µM Ca2+; measurement = EC50; result = 331 µM
Structure (SMILES) = Cn1cc(-c2ccc(-c3cncc(Cl)c3N3CCC4(CCNC4=O)CC3)cc2)cn1; target or system = COLO 205; test = gene expression, microarray, measured: KANK1 mRNA; conditions = concentration not given, 2 h; how to read = relative to: untreated cells; measurement = log2 fold change; result = -1.24
Structure (SMILES) = CC(C)C[C@H](NC(=O)C[C@H](O)[C@H](CC(C)C)NC(=O)[C@H](Cc1c[nH]cn1)NC(=O)CNC(=O)[C@@H](NC(=O)[C@H](C)NC(=O)[C@H](Cc1c[nH]c2ccccc12)NC(=O)[C@H](CCC(N)=O)NC(=O)[C@@H](Cc1ccccc1)NC(=O)COCCOCCNC(=O)CCC(C(=O)O)N1CCN(CC(=O)O)CCN(CC(=O)O)CCN(CC(=O)O)CC1)C(C)C)C(N)=O (stereo partly drawn) [lutetium-177 labelled]; system = BALB/c nu/nu mice, kidneys; conditions = intravenous, 250 pmol, 1 h, with: PA 300 µg; measurement = tissue uptake; result = 5.2 ± 0.7 %ID/g
Structure (SMILES) = CNc1ccc([N+](=O)[O-])cc1-n1cnc(-c2ccccc2)c1; target or system = Toll-like receptor 1/2; test = reporter gene, agonist; system = HEK-Blue hTLR2; conditions = 24 h; measurement = EC50; result = > 100 µM
Structure (SMILES) = C[C@H](NC(=O)CNC(=O)c1cccc(Cl)c1)c1ccccc1; target or system = GPR139 (Homo sapiens, UniProt Q6DWJ6); test = calcium response, agonist, BRET; system = HEK293T/17, transfected; measurement = EC50; result = 0.0962 ± 0.0161 µM
